Measurements gathered from unrelated publications.
Compare with care: the assays were run in different laboratories. ± gives the spread as reported.

C=CCSc1nnc([C@H](Cc2ccccc2)NC(=O)Cc2c(C)[nH]c3ccccc23)n1-c1ccc(OC)cc1 — CC50 (MT-4): 24.7 ± 0.75 µM
COc1ccc(S(=O)(=O)O)cc1N=Nc1c(S(=O)(=O)O)cc2cc(NCc3nc(CNc4cc(C)c(N=Nc5cc(S(=O)(=O)O)cc6cc(S(=O)(=O)O)cc(O)c56)cc4OC)nc(Nc4ccccc4)n3)ccc2c1O — CC50 (MT2; 3 days): 264 ± 29.3 µM
CCCCN1C(=O)c2ccc3c4c(ccc(c24)C1=O)C(=O)N(CCNc1c2ccc(Cl)cc2nc2ccc(OC)cc12)C3=O — CC50 (NIH3T3; cell growth or viability, MTT): > 0.02 µM
Cc1nc([C@@H](NC(=O)c2ccc(-c3ccc(Cl)cc3)[nH]2)[C@@H]2CCCCN2)sc1CO — CC50 (MT2; cell growth or viability, XTT): ~20 µM
COc1ccc(-n2c(SCC#N)nnc2[C@H](Cc2ccccc2)NC(=O)Cc2c(C)[nH]c3ccccc23)cc1 — CC50 (MT-4): 95.8 ± 69.6 µM
O=c1ccn([C@@H]2O[C@H](CO)[C@@H](O)[C@H]2F)c(=O)[nH]1 — CC50 (MOLT-4; cell growth or viability, SRB; 11 days): > 250 µM
CCOC(=O)c1cn(CC(c2c[nH]c3cc(Br)ccc23)c2c[nH]c3cc(Br)ccc23)c(C)c1C(=O)OC — CC50 (DH82; cell growth or viability, MTS; 72 h): 11.1 µM
CCN(Cc1cccc(S(=O)(=O)O)c1)c1ccc(C(=C2C=CC(=[N+](CC)Cc3cccc(S(=O)(=O)[O-])c3)C=C2)c2ccccc2)cc1 — CC50 (U87.CD4.R5.X4; 3 days): 436 ± 32.6 µM
COc1ccc(-c2cc(=O)c3c(O)c(OC)c(O)c(OC)c3o2)cc1O — CC50 (MT2; cell growth or viability, ATP luminescence; 48 h): ~50 µM
Nc1ncnc2c1ncn2[C@@H]1O[C@H](CO)[C@@H](O)[C@H]1F — CC50 (MOLT-4; cell growth or viability, SRB; 11 days): 81 µM
COc1ccc(-n2c(SCc3ccncc3)nnc2[C@H](Cc2ccccc2)NC(=O)Cc2c(C)[nH]c3ccccc23)cc1 — CC50 (MT-4): 24.8 ± 2.41 µM
OC[C@H]1O[C@@H](n2cnc3c(O)ncnc32)[C@H](F)[C@@H]1O — CC50 (MOLT-4; sulforhodamine B; 11 days, galactose medium): > 250 µM
O=[N+]([O-])/C(Br)=C/c1ccco1 — CC50 (KB; cell viability, alamarBlue; 72 h, 10% FCS): 16.6 ± 3.8 µM
COc1ccc(-n2c(SCc3ccc(S(N)(=O)=O)cc3)nnc2[C@H](Cc2ccccc2)NC(=O)Cc2c(C)[nH]c3ccccc23)cc1 — CC50 (MT-4): > 187 µM
O=[N+]([O-])/C=C/c1ccco1 — CC50 (KB; cell viability, alamarBlue; 72 h, 10% FCS): 11.6 ± 3.6 µM
Nc1ccn([C@@H]2O[C@H](CO)[C@@H](O)[C@H]2F)c(=O)n1 — CC50 (MOLT-4; cell growth or viability, SRB; 11 days): 7.7 µM

For quick reference, copied from above:
CCCCN1C(=O)c2ccc3c4c(ccc(c24)C1=O)C(=O)N(CCNc1c2ccc(Cl)cc2nc2ccc(OC)cc12)C3=O — CC50 (NIH3T3; cell growth or viability, MTT): > 0.02 µM
